Experimental data from different studies.
Each numbered part is a random draw from the data of one study; scales do not carry over between parts. Values joined by “and” are separate records of one study, mostly repeats; a detail may differ.
Sequence of UniProt O96017 (whole entry, looked up): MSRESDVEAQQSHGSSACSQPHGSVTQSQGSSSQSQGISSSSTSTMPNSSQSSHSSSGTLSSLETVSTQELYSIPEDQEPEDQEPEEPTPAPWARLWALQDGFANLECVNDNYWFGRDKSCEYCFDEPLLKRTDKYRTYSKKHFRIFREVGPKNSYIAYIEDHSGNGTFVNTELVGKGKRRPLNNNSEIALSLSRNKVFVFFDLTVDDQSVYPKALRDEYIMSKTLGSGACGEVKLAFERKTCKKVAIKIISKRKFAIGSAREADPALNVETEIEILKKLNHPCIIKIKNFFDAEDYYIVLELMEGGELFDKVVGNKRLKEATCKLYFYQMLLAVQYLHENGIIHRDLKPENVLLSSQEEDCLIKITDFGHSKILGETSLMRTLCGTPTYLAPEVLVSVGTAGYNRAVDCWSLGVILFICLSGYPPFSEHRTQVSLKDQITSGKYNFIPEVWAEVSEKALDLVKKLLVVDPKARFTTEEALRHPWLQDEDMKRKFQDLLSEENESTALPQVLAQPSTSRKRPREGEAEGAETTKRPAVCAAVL
Sequence of UniProt O94804 (whole entry, looked up): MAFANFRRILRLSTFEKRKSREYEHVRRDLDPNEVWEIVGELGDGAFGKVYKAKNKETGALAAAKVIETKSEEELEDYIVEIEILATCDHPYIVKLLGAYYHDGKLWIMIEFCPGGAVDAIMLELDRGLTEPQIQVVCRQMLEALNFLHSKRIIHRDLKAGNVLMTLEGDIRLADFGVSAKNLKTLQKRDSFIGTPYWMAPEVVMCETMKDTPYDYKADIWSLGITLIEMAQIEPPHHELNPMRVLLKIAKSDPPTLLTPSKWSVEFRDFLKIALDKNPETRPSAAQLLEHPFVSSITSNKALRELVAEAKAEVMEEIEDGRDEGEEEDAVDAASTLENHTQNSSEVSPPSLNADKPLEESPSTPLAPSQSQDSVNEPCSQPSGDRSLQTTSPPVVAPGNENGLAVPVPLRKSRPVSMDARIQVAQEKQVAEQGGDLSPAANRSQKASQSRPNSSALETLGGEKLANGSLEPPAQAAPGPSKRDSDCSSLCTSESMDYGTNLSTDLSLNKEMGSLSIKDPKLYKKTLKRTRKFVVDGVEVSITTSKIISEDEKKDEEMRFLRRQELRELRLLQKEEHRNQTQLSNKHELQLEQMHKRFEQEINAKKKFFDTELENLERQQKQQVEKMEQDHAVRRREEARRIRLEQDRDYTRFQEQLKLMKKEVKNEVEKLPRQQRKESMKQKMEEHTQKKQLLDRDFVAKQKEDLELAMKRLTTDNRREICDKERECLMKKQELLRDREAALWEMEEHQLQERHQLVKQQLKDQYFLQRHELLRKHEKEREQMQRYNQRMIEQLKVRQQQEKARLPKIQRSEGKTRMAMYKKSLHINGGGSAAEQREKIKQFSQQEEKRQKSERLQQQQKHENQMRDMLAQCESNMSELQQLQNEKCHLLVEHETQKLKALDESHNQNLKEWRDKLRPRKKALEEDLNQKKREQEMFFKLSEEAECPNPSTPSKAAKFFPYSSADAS
Sequence of UniProt P11802 (whole entry, looked up): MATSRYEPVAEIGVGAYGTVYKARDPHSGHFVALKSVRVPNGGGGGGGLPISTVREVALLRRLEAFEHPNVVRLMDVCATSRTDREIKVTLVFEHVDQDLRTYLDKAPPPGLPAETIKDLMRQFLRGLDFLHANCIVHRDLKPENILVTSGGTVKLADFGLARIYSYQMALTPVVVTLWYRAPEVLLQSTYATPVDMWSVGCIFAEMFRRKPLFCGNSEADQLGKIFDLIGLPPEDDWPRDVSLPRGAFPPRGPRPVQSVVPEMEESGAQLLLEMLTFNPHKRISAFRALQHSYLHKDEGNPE
Sequence of UniProt O75676 (whole entry, looked up): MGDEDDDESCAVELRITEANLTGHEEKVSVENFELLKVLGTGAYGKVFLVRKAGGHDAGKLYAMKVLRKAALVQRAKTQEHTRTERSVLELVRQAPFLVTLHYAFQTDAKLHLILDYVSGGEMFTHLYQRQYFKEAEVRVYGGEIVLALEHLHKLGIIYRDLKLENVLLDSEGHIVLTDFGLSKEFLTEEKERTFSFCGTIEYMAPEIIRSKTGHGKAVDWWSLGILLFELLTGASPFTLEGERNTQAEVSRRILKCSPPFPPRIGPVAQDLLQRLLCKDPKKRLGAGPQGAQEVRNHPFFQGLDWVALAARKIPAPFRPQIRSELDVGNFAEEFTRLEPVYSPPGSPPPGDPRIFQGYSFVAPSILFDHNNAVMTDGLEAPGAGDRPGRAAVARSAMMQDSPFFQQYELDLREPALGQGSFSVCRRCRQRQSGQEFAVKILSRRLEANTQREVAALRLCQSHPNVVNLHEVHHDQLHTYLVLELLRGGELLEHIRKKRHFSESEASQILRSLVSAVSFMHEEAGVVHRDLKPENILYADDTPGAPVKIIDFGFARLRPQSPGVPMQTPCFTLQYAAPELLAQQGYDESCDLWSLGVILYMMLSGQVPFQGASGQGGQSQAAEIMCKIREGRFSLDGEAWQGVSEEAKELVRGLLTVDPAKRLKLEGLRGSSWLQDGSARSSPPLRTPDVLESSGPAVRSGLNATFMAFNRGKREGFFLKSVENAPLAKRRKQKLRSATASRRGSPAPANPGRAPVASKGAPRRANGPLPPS
Sequence of UniProt O15264 (whole entry, looked up): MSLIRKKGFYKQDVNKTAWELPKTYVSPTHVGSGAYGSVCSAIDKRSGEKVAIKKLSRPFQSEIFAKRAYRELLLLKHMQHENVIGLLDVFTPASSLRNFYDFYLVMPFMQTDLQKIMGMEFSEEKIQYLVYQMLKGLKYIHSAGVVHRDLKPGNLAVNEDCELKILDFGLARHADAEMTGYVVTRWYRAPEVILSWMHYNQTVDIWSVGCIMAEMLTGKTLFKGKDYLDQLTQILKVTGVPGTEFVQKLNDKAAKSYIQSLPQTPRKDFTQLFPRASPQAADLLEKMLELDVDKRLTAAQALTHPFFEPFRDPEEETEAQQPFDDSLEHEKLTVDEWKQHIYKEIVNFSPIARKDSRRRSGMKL
Sequence of UniProt Q9UIK4 (whole entry, looked up): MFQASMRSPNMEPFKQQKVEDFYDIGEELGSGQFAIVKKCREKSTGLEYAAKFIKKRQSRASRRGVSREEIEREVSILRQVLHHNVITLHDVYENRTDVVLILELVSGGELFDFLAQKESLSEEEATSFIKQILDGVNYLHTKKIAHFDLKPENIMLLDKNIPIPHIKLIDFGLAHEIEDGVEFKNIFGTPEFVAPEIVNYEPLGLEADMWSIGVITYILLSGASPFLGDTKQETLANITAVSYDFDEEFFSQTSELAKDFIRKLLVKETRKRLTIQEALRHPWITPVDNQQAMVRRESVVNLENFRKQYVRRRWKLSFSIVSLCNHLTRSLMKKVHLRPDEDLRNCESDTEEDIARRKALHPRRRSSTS
Sequence of UniProt P53355 (whole entry, looked up): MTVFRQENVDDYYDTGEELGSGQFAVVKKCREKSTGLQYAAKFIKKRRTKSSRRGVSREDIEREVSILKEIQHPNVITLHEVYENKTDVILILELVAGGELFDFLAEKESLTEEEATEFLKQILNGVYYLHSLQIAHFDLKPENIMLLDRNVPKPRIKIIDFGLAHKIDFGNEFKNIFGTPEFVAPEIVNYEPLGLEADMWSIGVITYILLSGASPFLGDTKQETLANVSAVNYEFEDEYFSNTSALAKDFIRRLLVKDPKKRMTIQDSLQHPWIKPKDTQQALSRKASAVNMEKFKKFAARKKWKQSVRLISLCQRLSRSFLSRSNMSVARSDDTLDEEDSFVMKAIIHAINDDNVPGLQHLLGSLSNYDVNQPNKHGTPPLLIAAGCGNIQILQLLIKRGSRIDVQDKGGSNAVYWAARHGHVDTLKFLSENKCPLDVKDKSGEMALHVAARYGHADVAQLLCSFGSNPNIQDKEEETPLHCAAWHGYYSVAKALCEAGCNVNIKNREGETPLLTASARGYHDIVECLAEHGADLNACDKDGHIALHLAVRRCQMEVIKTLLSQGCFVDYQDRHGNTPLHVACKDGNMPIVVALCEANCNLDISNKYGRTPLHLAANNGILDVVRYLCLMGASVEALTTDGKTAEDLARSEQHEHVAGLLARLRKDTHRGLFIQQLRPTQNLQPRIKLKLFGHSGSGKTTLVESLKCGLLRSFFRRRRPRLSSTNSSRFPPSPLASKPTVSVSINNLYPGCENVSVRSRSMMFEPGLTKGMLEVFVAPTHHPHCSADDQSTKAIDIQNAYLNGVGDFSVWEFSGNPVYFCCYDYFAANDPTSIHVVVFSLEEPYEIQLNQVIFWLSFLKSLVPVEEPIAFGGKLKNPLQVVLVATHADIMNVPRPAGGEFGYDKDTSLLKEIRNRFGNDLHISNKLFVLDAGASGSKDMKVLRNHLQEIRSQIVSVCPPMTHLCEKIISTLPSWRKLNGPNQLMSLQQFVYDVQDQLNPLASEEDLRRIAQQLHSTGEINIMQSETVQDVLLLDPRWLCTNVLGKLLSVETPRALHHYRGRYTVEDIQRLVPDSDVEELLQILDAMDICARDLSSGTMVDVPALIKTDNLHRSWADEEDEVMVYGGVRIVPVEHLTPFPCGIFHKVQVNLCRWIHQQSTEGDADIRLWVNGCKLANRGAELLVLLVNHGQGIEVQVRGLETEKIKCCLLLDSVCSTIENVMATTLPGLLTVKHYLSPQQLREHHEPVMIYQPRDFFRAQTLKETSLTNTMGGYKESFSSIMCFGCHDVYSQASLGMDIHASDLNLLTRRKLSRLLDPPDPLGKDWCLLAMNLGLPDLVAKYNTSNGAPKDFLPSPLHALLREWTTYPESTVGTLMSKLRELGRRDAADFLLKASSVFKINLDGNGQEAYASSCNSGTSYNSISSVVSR
Sequence of UniProt Q00535 (whole entry, looked up): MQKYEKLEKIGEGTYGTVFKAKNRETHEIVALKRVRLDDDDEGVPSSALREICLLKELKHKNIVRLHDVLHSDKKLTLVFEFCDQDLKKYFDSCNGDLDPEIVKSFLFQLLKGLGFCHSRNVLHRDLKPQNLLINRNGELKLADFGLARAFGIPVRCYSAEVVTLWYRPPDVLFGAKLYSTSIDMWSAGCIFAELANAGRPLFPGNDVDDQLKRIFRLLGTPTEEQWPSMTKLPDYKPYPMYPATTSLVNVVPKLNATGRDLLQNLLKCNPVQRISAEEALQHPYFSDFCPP

Sample 1
Structure (SMILES): COCCOc1nc(-c2ccc(Cl)nc2)nc2c1CN(C(=O)c1ncn3ccccc13)CC2
Tested at: 0.1 µM
Measurement: remaining binding
MAPK13 (Homo sapiens, UniProt O15264); cell-free assay, competition with immobilised ligand: 100%
TRPM6 (Homo sapiens, UniProt Q9BX84); cell-free assay, competition with immobilised ligand: 100%
Ribosomal protein S6 kinase alpha-4, N-terminal kinase domain (RPS6KA4, Homo sapiens, UniProt O75676); cell-free assay, competition with immobilised ligand: 86%
CDC42BPA (Homo sapiens, UniProt Q5VT25); cell-free assay, competition with immobilised ligand: 100%
ACVR2B (Homo sapiens, UniProt Q13705); cell-free assay, competition with immobilised ligand: 93%
MAPK15 (Homo sapiens, UniProt Q8TD08); cell-free assay, competition with immobilised ligand: 100%
AAK1 (Homo sapiens, UniProt Q2M2I8); binding: 100%
Tyrosine-protein kinase ABL1, non-phosphorylated (ABL1, Homo sapiens, UniProt P00519); cell-free assay, competition with immobilised ligand: 60%
RET (Homo sapiens, UniProt P07949, V804L); cell-free assay, competition with immobilised ligand: 100%
MAP3K1 (Homo sapiens, UniProt Q13233); cell-free assay, competition with immobilised ligand: 100%
PTK6 (Homo sapiens, UniProt Q13882); cell-free assay, competition with immobilised ligand: 100%
PIM3 (Homo sapiens, UniProt Q86V86); cell-free assay, competition with immobilised ligand: 100%
WNK3 (Homo sapiens, UniProt Q9BYP7); cell-free assay, competition with immobilised ligand: 100%
LRRK2 (Homo sapiens, UniProt Q5S007, G2019S); cell-free assay, competition with immobilised ligand: 100%
ACVR2A (Homo sapiens, UniProt P27037); cell-free assay, competition with immobilised ligand: 98%
HIPK4 (Homo sapiens, UniProt Q8NE63); cell-free assay, competition with immobilised ligand: 83%
CLK1 (Homo sapiens, UniProt P49759); cell-free assay, competition with immobilised ligand: 100%
PRPF4B (Homo sapiens, UniProt Q13523); cell-free assay, competition with immobilised ligand: 100%
CDK4 (Homo sapiens, UniProt P11802); cell-free assay, competition with immobilised ligand: 100%
STK10 (Homo sapiens, UniProt O94804); cell-free assay, competition with immobilised ligand: 100%
EGFR (Homo sapiens, UniProt P00533, del747-750/T751S); cell-free assay, competition with immobilised ligand: 100%
FLT3 (Homo sapiens, UniProt P36888, R834Q); cell-free assay, competition with immobilised ligand: 65%
PAK2 (Homo sapiens, UniProt Q13177); cell-free assay, competition with immobilised ligand: 100%
HUNK (Homo sapiens, UniProt P57058); cell-free assay, competition with immobilised ligand: 78%
CHEK2 (Homo sapiens, UniProt O96017); cell-free assay, competition with immobilised ligand: 100%

Sample 2
Structure (SMILES): c1ccc2c(-c3nn4c(-c5ccncc5)nnc4s3)c[nH]c2c1
Measurement: enzyme activity
L444P/L444P Gaucher fibroblasts; 4-MUG hydrolysis in lysate; 0.5 µM, 72 h; relative to: vehicle: 185% and 186% and 163% and 237% and 157% and 178% and 269% and 148%
L444P/L444P Gaucher fibroblasts; 4-MUG hydrolysis in lysate; 0.5 µM, 72 h, without ISRIB; relative to: vehicle: 175% and 159% and 162% and 157% and 164% and 171% and 180%
wild-type human fibroblasts; GCase activity, 4-MUG hydrolysis lysate; 1 µM, 72 h; relative to: vehicle: 126% and 141% and 191%
wild-type human fibroblasts; GCase activity, 4-MUG hydrolysis lysate; 0.5 µM, 72 h; relative to: vehicle: 139% and 191%
glucocerebrosidase L444P (human); 4-MUG hydrolysis in lysate; Gaucher fibroblasts L444P/L444P; 0.1 µM, 24 h; relative to: vehicle: 106% and 110%
alpha-galactosidase (human); healthy dermal fibroblasts; 0.5 µM, with ISRIB; relative to: DMSO without ISRIB: 254% and 170% and 255% and 169% and 172% and 164% and 205% and 239%
L444P/L444P Gaucher fibroblasts; 4-MUG hydrolysis in lysate; 0.05 µM, 72 h; relative to: vehicle: 104% and 112% and 118% and 103% and 115% and 123%
wild-type human fibroblasts; GCase activity, 4-MUG hydrolysis lysate; 0.5 µM, 48 h; relative to: vehicle: 107% and 110% and 98.6% and 100% and 108%
L444P/L444P Gaucher fibroblasts; 4-MUG hydrolysis in lysate; 0.1 µM, 72 h; relative to: vehicle: 160% and 112% and 146% and 143% and 131% and 133% and 150%

Sample 3
Organism: Sarcocystis neurona
Observed: parasite activity
Tested at: concentration not given
Measurement: activity class
CN(C)CCOc1ccc(/C(=C(/CCCl)c2ccccc2)c2ccccc2)cc1.O=C(O)CC(O)(CC(=O)O)C(=O)O: inactive
CN1CCC(=C2c3ccccc3CCc3sccc32)CC1.O=C(O)/C=C\C(=O)O: inactive
C[C@]12CCC(=O)C=C1CC[C@@H]1[C@@H]2C(=O)C[C@@]2(C)[C@H]1CC[C@]2(O)C(=O)CO: inactive
C#C[C@]1(O)CC[C@H]2[C@@H]3CCC4=CC(=O)CC[C@@H]4[C@H]3CC[C@@]21C: inactive
CC(C)(C)NCC(O)c1ccc(O)c(CO)c1.CC(C)(C)NCC(O)c1ccc(O)c(CO)c1.O=S(=O)(O)O (centres unmarked): inactive
COc1ccc(CC(C)NCC(O)c2ccc(O)c(NC=O)c2)cc1.COc1ccc(CC(C)NCC(O)c2ccc(O)c(NC=O)c2)cc1.O.O.O=C(O)/C=C/C(=O)O (centres unmarked): inactive
CC(CCCCC(=O)Nc1ccc(C(F)(F)F)cc1)NCCc1cnc[nH]1 (centres unmarked): inactive
CN1[C@@H](CC(=O)c2ccccc2)CCC[C@H]1C[C@H](O)c1ccccc1.Cl: inactive
Nc1nc(=O)[nH]cc1F: inactive
NC(=O)OCC(COC(N)=O)c1ccccc1.O: inactive

Sample 4
SMILES: CCCC(=O)Oc1ccc2[nH]c(C(=O)c3cc4ccccc4[nH]3)cc2c1
Observed: enzyme activity
Mode: inhibitor
Tested at: 0.5 µM
Relative to: control
Measurement: remaining activity
Cyclin-dependent kinase 4, with cyclin D1 (CDK4, Homo sapiens, UniProt P11802): 106%
STK10 (Homo sapiens, UniProt O94804): 94.3%
IKBKE (Homo sapiens, UniProt Q14164): 91.4%
DAPK2 (Homo sapiens, UniProt Q9UIK4): 88.4%
MAPK9 (Homo sapiens, UniProt P45984): 76%
Cyclin-dependent kinase 5, with p25 (CDK5, Homo sapiens, UniProt Q00535): 90.1%
GRK3 (Homo sapiens, UniProt P35626): 101%
STK11 (Homo sapiens, UniProt Q15831): 101%
NEK2 (Homo sapiens, UniProt P51955): 86.8%
CHEK2 (Homo sapiens, UniProt O96017): 99%
cGMP-dependent protein kinase 1, isoform beta (PRKG1, Homo sapiens, UniProt Q13976): 104%
STK39 (Homo sapiens, UniProt Q9UEW8): 117%
TGFBR1 (Homo sapiens, UniProt P36897): 101%
TGFBR2 (Homo sapiens, UniProt P37173): 101%
DAPK1 (Homo sapiens, UniProt P53355): 85.8%
